Experimental data from different studies.
Compare with care: the assays were run in different laboratories. Values joined by “and” are separate records of one study, mostly repeats; a detail may differ. Numbers after ± are the reported error.

Nc1cccc2c1C(=O)N(C1CCC(=O)NC1=O)C2=O (stereo not drawn) — viability (MM1.S; XTT; 0.2 µM; baseline: untreated): 69%
Nc1ncnc2c1ncn2[C@@H]1O[C@H](CO)[C@@H](O)[C@H]1O — viability (activated human T cells; 1 µM, 72 h; higher = more viable cells): 84.2 a.u. and 87.9 a.u. and 83.5 a.u.
O=C(CCCCCCC(=O)Nc1ccccc1)NO — viability (MDA-MB-231 BAX/BAK siRNA knockdown; CellTiter-Glo; concentration not given; baseline: normalised luminescence): 21.2% and 18.7%
COc1ccc(-n2nc(C(C)=O)s/c2=N\N=C(/C)c2ccc(NC(=O)c3ccccc3)cc2)cc1 — viability (MCF7; 0.312 µM): 5%
Nc1cccc2c1CN(C1CCC(=O)NC1=O)C2=O (stereo not drawn) — viability (bone marrow CD138+ myeloma cells; XTT; 0.2 µM, mean of three patients): 98%
C[C@]12CC[C@@H]3c4ccc(O)cc4CC[C@H]3[C@@H]1CC[C@@H]2OC(=O)CCC1CCCC1 — viability (MDA-MB-231 BAX/BAK siRNA knockdown; CellTiter-Glo; concentration not given; baseline: normalised luminescence): 57.2% and 33.7%
O=P(O)(O)C(O)(Cn1ccnc1)P(=O)(O)O — viability (hFOB 1.19; AlamarBlue; 3.8 µM, 72 h; baseline: control): 100 ± 1%
Cc1cccc(-c2[nH]c(CNc3ccccc3F)nc2-c2ccc3ncnn3c2)n1 — viability (bone marrow CD138+ myeloma cells; XTT; 0.6 µM, mean of three patients): 83%
Nc1ncnc2[nH]cnc12 — viability (MDA-MB-231 BAX/BAK siRNA knockdown; CellTiter-Glo; concentration not given; baseline: normalised luminescence): 52% and 56.8%
